# Measurements of several laboratories.
# Parts stem from different laboratories: compare values within a part only. Substitutions count along the parent as printed.

# Series 1
# Target: Interferon regulatory factor 5, full length, phosphomimetic (IRF5, Homo sapiens, UniProt Q13568-2, residues 1-514, S451D/S453D/S456D/S462D)
# Technique: protein-binding microarray
# Form: double-stranded DNA, one strand shown
# Matrix: in vitro
# Tested at: 940 nM top
# Setting: 60-bp whole probe
# Together with: salmon DNA 0.4 mg/ml
# Reference: random background probes
# Direction: higher = stronger binding
# Shared flanks, not repeated: GCCTAGCAC … GTCTTGATTCGCTTGACGCTGCTG
Sequence,fitted relative affinity [z-score]
TCACCTCTCTCTTTCCAACTGTGCTAG,1.88
TTAGGTCTCCTACTGCCTTAGTGCTAG,0.0523
ATAGATTTCAGTTCCGATTAGTGCTAG,2
GACGAACTGGGTTTTCGAGACGTGCTA,0.0803
GACGAACTGAGACTGGAGCCGTGCTAG,-0.243
TCAGAAATCACCCTTGGAACTGTGCTA,0.0436
TCACCTAACATGCTTCGAACTGTGCTA,0.384
TTAGGTATCCTTAGCCTTTAGTGCTAG,0.0951
GACGGACTGTTTATCCTGACGTGCTAG,-0.264
TTAGATTTCGGGTATCGATTCGTGCTA,3.71
TTAGGACTGGGTATCGGTGAGTGCTAG,1.54
GGAGTTTTCTCATTCGTCATGTGCTAG,1.49
TCAAGCTTCTTTTTTATACTGTGCTAG,0.992
GACGAAATGAGTTTCGAGACGTGCTAG,4.26
GACGGTAACGGTCTCGGGACGTGCTAG,0.603
GACGGACAGGGTATCGGGACGTGCTAG,0.304
GACGGTCTACTTTTCCTGACGTGCTAG,0.535
GACGGTCTCCTTTTTCTGACGTGCTAG,0.936

# Series 2
# Target: Sal-like protein 4, full length isoform B (SALL4, Homo sapiens, UniProt Q9UJQ4-2, residues 1-616)
# Technique: universal PBM
# Form: double-stranded DNA, one strand shown
# Matrix: in vitro
# Tested at: not given
# Setting: 8-mer, flanks averaged, mean of replicates
# Direction: higher = stronger binding
# Construct (chain): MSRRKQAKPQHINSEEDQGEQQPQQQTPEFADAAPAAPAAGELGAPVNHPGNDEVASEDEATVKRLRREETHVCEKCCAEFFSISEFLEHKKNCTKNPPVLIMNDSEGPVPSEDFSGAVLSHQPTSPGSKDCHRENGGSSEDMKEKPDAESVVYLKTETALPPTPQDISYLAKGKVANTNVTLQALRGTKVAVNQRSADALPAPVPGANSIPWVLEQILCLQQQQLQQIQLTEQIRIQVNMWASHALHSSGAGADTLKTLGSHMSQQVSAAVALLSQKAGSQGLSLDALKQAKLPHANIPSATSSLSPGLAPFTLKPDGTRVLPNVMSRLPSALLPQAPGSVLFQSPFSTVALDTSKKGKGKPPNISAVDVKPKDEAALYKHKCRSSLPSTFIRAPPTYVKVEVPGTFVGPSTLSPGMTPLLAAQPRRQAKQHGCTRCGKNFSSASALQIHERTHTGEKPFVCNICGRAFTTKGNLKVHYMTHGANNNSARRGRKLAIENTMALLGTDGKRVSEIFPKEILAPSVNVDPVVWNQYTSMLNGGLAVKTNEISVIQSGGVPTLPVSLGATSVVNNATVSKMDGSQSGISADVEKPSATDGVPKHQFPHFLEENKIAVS
Sequence,E-score
ATAGGACG,0.0299
ATCGAGCC,-0.102
CCGTGTGA,-0.179
AGCATACG,0.0516
GCGGTGGA,-0.236
AGTGGTTC,-0.071
TACTGCCA,0.0493
ACCTTAAG,-0.00371
CGGCGCGA,-0.134
ATACTAGA,0.248
CGCTTTGC,-0.00067
AGCAGGCA,-0.203
CCCAAGAA,0.0157
AGTCCGGC,-0.278
CAAAGGCG,-0.16
CTGCAAGC,-0.22
TCACTAAA,0.0179
CGGCTTAA,-0.0902
AGGTATGA,0.179
CACTTTAA,0.147
CGCTTGGC,-0.203
AGAAGCGG,-0.165
TCGAGCGA,-0.104
CACAATGA,0.0728
ATGTCATC,-0.0215

# Series 3
# Target: CREB5, bZIP domain (human)
# Technique: DHFR protein complementation
# Matrix: yeast
# Setting: single substitutions, most at no-binding floor
# Reference: wild-type JUN-FOS pair
# Direction: higher = stronger binding
# Starting sequence: JUN, bZIP domain (human); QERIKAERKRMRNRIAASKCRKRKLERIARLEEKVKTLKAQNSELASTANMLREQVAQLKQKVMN; partner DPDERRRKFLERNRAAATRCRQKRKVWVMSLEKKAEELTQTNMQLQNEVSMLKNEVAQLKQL
Substitution,binding fitness
L31T,-1.11 natural log
R53S,-1.13 natural log
E44T,-0.524 natural log
I28S,-0.645 natural log
N42L,-1.17 natural log
K36V,-0.423 natural log
A49D,-1.3 natural log
A46M,-0.192 natural log
L59T,-1.14 natural log
I28G,-0.426 natural log
L38N,-1.36 natural log
Q55I,-0.651 natural log
V56N,-1.38 natural log
S43I,-0.213 natural log
L38I,-1.07 natural log
K34Y,-0.414 natural log
L45H,-1.41 natural log

# Series 4
# Target: ABI1, truncated, D143A, DHFR fusion (Arabidopsis thaliana)
# Technique: DHFR PCA, deep sequencing
# Matrix: yeast
# Setting: methotrexate growth selection, single substitutions
# Together with: (+)-ABA 0.11 µM
# Reference: wild-type fitted maximum
# Direction: higher = stronger binding
# Starting sequence: PYL1, truncated, DHFR fusion (Arabidopsis thaliana); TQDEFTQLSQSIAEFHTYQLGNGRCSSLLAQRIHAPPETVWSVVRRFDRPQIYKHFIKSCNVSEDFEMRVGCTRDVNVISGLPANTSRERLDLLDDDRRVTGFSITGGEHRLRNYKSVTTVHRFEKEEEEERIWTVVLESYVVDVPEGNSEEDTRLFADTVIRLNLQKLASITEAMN; partner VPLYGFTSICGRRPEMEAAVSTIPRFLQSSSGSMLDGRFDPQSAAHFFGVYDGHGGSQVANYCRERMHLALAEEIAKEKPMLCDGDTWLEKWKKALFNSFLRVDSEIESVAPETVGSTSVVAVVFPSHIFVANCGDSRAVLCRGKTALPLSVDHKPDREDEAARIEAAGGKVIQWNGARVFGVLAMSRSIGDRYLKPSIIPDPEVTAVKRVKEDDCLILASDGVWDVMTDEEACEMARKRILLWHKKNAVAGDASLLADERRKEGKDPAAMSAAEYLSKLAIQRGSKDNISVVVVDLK
Substitution,relative binding score
E4M,27.2%
L20A,46.9%
S42Y,-3.64%
K168G,-0.935%
L138F,9.3%
S104F,0.889%
N61Y,35.9%
E109G,-0.838%
S150I,-4.64%
K116H,9.64%
D48L,-2.37%
I57L,1.44%
S150Y,-7.47%

# Series 5
# Target: Histone acetyltransferase KAT6A, winged helix 2, GST fusion (KAT6A, Homo sapiens, UniProt Q92794, residues 85-181)
# Technique: protein binding microarray
# Form: double-stranded DNA, one strand shown
# Matrix: in vitro
# Tested at: not given
# Setting: 8-mer, flanks averaged, mean of 2 arrays, mostly near background
# Reference: not given
# Direction: higher = stronger binding
# Residues (chain): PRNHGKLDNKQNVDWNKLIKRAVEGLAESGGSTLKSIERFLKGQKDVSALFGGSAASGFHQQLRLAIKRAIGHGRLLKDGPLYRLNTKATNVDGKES
Sequence,E-score
AATTGCGT,0.0444
CGTCCTAA,-0.142
AGTACCGC,-0.0915
AGAAATTC,0.0763
AATTACAC,-0.00769
ACAATATC,0.00826
ATAGCTGG,0.00049
AAAGGCCA,-0.0804
GACTCAGA,-0.0939
CGTCTGCC,-0.0782
CTATCTGA,0.0369
AAAAGTCG,0.0464
GCTCGCAC,0.217
AGATACCT,-0.132
CCTAACGC,0.0295
CCTTCAAA,-0.00316
TCACTTCA,-0.0862
CTTACTCC,-0.0048
GCACATGA,-0.184
ACCTCTAT,0.00361
GTAAAATA,0.0408
CAGCGTCA,0.0223
GGTTCACA,0.118
ACGCGGAG,0.0237

# Series 6
# Target: CCNF, cyclin fold, Cln2 fusion (human)
# Technique: yeast growth competition, sequencing
# Matrix: yeast
# Setting: strong parent motif
# Reference: not given
# Direction: higher = stronger binding
# Starting sequence: INSM1 docking peptide (human); PKAIRKLHFEDEV; partner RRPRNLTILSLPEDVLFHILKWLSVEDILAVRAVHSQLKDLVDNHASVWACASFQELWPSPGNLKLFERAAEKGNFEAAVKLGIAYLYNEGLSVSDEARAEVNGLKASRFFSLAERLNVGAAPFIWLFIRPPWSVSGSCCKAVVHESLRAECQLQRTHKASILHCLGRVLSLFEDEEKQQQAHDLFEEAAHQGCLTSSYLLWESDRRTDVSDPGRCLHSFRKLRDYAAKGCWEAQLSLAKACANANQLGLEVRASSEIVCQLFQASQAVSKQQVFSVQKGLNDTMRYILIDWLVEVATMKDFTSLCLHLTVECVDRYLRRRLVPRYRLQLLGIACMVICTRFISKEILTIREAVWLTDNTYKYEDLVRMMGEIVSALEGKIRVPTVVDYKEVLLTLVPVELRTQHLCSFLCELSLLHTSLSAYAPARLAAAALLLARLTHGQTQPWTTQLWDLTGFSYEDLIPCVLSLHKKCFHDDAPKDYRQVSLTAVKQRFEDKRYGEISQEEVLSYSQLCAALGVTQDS
Substitution,normalised enrichment score
I4D,3.8
D11W,7.86
L7T,0.217
E12W,7.81
K6N,3.04
F9R,0.116
F9L,4.82
L7G,-0.109
I4F,6.76
K2G,7.09
R5Q,1.67
K2L,7.29
D11P,7.83
K2H,7.29
E10A,7.34
H8F,7.65
D11T,7.08
R5K,5.31
E12T,7.67
L7E,-0.0175
F9H,0.341
R5M,1.25
K2V,7.03

# Other studies, line by line
Molecule,target,assay,test system,setting,how to read,quantity,result
"PhoQ, residues 284 288 289 292 302 303 NLALSC","PhoP, residues 12 14 15 18 19 QWHVF (Escherichia coli, UniProt P23836)","Sort-seq, item: YFP reporter",E. coli,"PhoQ-PhoP variant library, together with: 10 µM Mg2+","reference: high Mg2+ state, higher = stronger signaling",fold induction,2.36
